Measured values gathered from unrelated publications.
Cell line: L02
Read-out: cell growth or viability

COc1cc(/C=C/C(=O)OCCCC[P+](c2ccccc2)(c2ccccc2)c2ccccc2)ccc1O gave an IC50 of 89.7 µM (SRB; 24 h).
Clc1ccc2[nH]c(-c3cc4cc5c(cc4nc3Cl)OCO5)nc2c1 gave an IC50 of greater than 100 µM (MTT; 48 h).
The IC50 of COc1ccc(-c2nnc(-c3ccccn3)[nH]2)cc1OC is reported as greater than 100 µM (MTT; 24 h).
With COc1ccc(CN2C(=O)C(=O)c3cc(NC(C)=O)ccc32)cc1 the IC50 was 5.12 µM (MTT; 48 h).
The IC50 of NC(=S)c1ccc(O)cc1 is reported as greater than 200 µM (CCK-8; 72 h).
For [Cl][Cu][Cl].c1ccc(-c2nnc(-c3ccc4c(c3)OCO4)[nH]2)nc1, the IC50 was 5.54 µM (MTT; 24 h).
With COc1cc([C@@H]2c3cc4c(cc3[C@H](OC(=O)CCCc3ccc(NS(=O)(=O)c5ccccc5Br)cc3)[C@H]3COC(=O)[C@H]23)OCO4)cc(OC)c1OC the IC50 was greater than 100 µM (CCK-8; 24 h).
COc1ccc2nc(Cl)c(-c3nc4ccccc4[nH]3)cc2c1 gave an IC50 of greater than 100 µM (MTT; 48 h).
COc1cc2c(cc1C(C)(C)O)CCC1C(C)(C)c3nc(C)ncc3C[C@]21C (mixture of isomers) gave an IC50 of greater than 200 µM (SRB; 24 h).
O=C(/C=C/c1ccc(O)c(O)c1)OCCCC[P+](c1ccccc1)(c1ccccc1)c1ccccc1 has an IC50 of 119 µM (SRB; 24 h).
For Clc1ccc2[nH]c(-c3cc4ccccc4nc3Cl)nc2c1, the IC50 was greater than 100 µM (MTT; 48 h).
For O=C(/C=C/c1ccccc1)OCCCC[P+](c1ccccc1)(c1ccccc1)c1ccccc1, the IC50 was 105 µM (SRB; 24 h).
For Cc1ccc2nc(Cl)c(-c3nc4cc(Cl)ccc4[nH]3)cc2c1, the IC50 was greater than 100 µM (MTT; 48 h).
